Results gathered from unrelated publications.
Numbered parts are unrelated; each lists some results of a single study.
Chain of UniProt P00519 (whole entry, unmodified, looked up): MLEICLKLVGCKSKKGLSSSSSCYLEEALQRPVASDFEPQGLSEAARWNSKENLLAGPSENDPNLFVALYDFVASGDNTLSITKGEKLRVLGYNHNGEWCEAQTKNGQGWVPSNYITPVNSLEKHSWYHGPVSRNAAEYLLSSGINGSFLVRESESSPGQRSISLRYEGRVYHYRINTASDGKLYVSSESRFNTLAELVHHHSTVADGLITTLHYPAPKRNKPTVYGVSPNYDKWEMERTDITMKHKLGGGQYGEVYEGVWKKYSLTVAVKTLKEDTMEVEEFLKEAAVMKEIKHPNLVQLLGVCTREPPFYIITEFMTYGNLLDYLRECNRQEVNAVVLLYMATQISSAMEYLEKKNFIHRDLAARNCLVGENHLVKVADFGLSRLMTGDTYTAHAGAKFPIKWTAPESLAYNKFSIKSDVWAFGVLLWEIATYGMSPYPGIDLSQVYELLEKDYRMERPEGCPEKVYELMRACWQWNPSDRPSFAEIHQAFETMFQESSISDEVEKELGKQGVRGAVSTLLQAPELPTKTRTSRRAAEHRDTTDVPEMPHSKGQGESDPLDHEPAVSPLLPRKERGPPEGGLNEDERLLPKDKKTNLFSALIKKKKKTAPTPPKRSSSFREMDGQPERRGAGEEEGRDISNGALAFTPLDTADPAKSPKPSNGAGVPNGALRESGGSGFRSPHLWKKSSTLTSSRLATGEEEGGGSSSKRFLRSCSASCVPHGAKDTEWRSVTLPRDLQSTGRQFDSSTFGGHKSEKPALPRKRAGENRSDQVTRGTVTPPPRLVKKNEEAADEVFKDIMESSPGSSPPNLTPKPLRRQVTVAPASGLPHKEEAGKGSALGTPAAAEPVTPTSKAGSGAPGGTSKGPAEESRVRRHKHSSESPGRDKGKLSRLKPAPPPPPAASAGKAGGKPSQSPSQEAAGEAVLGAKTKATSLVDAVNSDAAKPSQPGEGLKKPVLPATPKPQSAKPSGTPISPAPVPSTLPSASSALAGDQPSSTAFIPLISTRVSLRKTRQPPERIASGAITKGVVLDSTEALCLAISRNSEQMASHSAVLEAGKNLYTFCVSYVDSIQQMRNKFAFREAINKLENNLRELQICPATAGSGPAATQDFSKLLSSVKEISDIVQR
Chain of UniProt Q02763 (whole entry, looked up): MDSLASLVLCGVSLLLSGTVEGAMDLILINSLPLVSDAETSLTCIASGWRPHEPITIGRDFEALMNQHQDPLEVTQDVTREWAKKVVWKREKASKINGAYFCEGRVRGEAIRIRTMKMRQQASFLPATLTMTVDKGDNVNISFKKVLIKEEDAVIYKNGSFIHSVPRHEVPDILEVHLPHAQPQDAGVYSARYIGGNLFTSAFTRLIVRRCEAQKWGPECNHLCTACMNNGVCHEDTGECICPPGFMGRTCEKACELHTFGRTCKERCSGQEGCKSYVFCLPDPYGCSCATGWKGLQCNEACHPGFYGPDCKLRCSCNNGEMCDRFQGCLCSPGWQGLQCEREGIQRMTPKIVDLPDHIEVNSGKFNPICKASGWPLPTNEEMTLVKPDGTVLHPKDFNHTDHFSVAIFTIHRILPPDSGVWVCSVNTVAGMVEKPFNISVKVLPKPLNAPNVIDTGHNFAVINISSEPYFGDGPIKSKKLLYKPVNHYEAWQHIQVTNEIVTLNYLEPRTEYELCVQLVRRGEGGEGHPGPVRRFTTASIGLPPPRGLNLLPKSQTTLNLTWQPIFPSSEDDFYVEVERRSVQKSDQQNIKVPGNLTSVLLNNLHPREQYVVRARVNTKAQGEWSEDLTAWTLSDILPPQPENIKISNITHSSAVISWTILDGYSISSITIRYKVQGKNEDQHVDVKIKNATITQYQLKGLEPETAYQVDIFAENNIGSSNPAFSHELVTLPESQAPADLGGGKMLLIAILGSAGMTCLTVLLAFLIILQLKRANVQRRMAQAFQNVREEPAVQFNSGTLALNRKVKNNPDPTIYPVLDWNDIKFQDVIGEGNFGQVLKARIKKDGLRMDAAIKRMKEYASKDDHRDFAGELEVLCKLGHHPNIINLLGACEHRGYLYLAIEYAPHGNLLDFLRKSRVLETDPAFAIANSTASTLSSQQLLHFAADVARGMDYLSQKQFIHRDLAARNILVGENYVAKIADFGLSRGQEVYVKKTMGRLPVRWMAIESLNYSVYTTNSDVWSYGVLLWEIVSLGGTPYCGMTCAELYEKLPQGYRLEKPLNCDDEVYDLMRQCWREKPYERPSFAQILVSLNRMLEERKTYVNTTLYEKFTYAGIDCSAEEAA
Chain of UniProt Q9UM73 (whole entry, looked up): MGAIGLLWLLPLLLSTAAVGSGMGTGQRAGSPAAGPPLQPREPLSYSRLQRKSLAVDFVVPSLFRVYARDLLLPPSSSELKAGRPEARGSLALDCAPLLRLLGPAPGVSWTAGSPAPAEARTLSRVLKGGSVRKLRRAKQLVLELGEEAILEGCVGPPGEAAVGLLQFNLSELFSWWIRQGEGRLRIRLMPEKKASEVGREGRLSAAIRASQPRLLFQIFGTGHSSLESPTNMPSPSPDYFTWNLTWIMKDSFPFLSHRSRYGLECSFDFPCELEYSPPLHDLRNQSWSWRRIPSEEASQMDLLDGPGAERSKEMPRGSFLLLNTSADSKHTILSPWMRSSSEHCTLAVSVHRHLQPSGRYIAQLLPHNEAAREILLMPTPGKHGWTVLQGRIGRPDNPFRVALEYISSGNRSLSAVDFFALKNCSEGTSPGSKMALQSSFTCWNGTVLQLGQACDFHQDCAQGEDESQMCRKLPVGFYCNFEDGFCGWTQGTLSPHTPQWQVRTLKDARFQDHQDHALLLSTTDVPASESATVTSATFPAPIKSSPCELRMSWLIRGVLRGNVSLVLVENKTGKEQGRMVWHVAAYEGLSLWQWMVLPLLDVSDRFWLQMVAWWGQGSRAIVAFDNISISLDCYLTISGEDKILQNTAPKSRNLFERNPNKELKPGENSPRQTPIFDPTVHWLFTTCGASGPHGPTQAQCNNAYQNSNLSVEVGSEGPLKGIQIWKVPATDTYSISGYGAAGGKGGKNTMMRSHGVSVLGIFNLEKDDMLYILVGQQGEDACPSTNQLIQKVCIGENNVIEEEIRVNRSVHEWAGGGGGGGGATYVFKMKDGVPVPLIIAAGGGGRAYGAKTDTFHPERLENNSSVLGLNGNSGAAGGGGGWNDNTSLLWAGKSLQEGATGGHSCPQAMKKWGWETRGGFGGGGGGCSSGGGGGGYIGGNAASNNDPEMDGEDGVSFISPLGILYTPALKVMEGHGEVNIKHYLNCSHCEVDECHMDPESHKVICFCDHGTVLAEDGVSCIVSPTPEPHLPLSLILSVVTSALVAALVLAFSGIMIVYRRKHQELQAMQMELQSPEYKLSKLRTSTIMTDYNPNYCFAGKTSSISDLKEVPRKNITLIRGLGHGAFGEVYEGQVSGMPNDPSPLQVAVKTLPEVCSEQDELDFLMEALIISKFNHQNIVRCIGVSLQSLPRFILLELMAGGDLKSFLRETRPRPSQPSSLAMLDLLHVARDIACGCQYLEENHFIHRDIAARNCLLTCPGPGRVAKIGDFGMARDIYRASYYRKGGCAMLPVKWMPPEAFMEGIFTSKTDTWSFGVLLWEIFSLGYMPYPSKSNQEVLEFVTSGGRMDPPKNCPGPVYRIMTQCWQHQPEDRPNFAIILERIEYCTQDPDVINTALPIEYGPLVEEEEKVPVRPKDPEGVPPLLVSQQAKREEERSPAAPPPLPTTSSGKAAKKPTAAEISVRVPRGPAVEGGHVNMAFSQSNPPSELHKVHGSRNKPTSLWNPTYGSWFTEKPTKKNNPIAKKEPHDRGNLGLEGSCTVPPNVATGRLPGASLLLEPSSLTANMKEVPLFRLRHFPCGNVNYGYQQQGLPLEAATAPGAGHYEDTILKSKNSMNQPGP
Chain of UniProt O43353 (whole entry, looked up): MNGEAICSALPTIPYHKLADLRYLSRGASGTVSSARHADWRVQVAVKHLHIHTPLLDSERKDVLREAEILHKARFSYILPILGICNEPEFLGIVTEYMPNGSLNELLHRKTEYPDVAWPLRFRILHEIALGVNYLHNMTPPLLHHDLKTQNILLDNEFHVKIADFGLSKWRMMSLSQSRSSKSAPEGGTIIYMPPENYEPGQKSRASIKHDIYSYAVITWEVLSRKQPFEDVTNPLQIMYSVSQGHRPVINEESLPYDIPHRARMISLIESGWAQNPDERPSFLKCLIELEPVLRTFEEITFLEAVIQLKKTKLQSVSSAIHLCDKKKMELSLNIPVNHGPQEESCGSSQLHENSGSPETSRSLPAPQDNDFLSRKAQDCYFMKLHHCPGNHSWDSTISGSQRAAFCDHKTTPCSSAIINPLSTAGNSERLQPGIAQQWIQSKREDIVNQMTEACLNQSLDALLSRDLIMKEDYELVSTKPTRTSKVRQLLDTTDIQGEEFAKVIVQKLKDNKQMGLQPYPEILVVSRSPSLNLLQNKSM
Chain of UniProt P68400 (whole entry, looked up): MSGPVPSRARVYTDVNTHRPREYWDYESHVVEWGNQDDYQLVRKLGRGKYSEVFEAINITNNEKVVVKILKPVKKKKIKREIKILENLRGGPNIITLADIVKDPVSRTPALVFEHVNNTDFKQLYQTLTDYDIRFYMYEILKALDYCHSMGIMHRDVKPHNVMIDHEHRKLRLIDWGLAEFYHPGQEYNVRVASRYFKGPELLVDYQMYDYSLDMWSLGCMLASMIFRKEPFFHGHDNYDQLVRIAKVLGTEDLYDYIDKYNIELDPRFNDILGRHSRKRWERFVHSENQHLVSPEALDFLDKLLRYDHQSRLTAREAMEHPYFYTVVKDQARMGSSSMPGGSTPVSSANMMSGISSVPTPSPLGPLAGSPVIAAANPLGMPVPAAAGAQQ
Chain of UniProt Q8H174 (whole entry, looked up): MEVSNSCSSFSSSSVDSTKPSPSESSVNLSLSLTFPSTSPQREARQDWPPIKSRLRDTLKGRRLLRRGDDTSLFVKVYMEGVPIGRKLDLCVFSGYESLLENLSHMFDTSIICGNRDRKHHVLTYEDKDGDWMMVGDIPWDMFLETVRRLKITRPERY

Series 1
SMILES: CCCCc1c(-c2ccc(OC)cc2)[nH]c2nccnc12
Observed: enzyme activity
Mode: inhibitor
Concentration: 0.5 µM
Baseline: control
target | remaining activity
RPS6KA2 (Homo sapiens, UniProt Q15349) | 93%
GSK3B (Homo sapiens, UniProt P49841) | 70.2%
MAP3K14 (Homo sapiens, UniProt Q99558) | 105%
CSNK1G2 (Homo sapiens, UniProt P78368) | 92.5%
FRK (Homo sapiens, UniProt P42685) | 86.5%
EPHA3 (Homo sapiens, UniProt P29320) | 91.9%
LCK (Homo sapiens, UniProt P06239) | 85%
ABL2 (Homo sapiens, UniProt P42684) | 70.5%
FGFR1 (Homo sapiens, UniProt P11362) | 83.3%
TEK (Homo sapiens, UniProt Q02763) | 96.3%
MAPKAPK2 (Homo sapiens, UniProt P49137) | 90.2%
MAP3K5 (Homo sapiens, UniProt Q99683) | 95%
JAK3 (Homo sapiens, UniProt P52333) | 92.8%

Series 2
Sequence: B1 (IAA4)
Technique: two-hybrid
Direction: higher = firmer interaction
T1: itself; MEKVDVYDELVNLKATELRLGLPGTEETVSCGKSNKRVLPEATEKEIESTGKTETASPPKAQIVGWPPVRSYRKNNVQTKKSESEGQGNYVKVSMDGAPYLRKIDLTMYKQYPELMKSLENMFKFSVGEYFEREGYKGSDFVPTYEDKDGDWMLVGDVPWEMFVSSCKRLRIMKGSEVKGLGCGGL
B1: IAA4 (Arabidopsis thaliana, UniProt P33077); chain MEKVDVYDELVNLKATELRLGLPGTEETVSCGKSNKRVLPEATEKEIESTGKTETASPPKAQIVGWPPVRSYRKNNVQTKKSESEGQGNYVKVSMDGAPYLRKIDLTMYKQYPELMKSLENMFKFSVGEYFEREGYKGSDFVPTYEDKDGDWMLVGDVPWEMFVSSCKRLRIMKGSEVKGLGCGGL
partner | setting | how to read | positive tests
IAA30 (Arabidopsis thaliana, UniProt Q9M1R4) | weak activation fusion | baseline: out of 4 tests | 2
IAA5 (Arabidopsis thaliana, UniProt P33078) | – | baseline: out of 4 tests | 3
ARF12 500-593 (Arabidopsis thaliana, UniProt Q9XID4) | – | baseline: out of 4 tests | 0
IAA16 (Arabidopsis thaliana, UniProt O24407) | – | baseline: out of 2 tests | 2
ARF9 519-638 (Arabidopsis thaliana, UniProt Q9XED8) | weak activation fusion | baseline: out of 4 tests | 2
IAA31 (Arabidopsis thaliana, UniProt Q8H174) | – | baseline: out of 2 tests | 0
IAA10 (Arabidopsis thaliana, UniProt Q38828) | – | baseline: out of 4 tests | 2
T1, itself | – | baseline: out of 4 tests | 2

Series 3
Structure (SMILES): COc1ccc2c(O[C@@H]3C[C@H]4C(=O)N[C@]5(C(=O)O)CC5/C=C\CCCCC[C@H](NC(=O)OC5CCCC5)C(=O)N4C3)cc(-c3csc(NC(=O)C(C)C)n3)nc2c1C (some centres unmarked)
Concentration: 1 µM
target | test | setting | how to read | remaining binding [%]
CDK7 (Homo sapiens, UniProt P50613) | cell-free assay, competition with immobilised ligand | – | – | 62
CDK4 (Homo sapiens, UniProt P11802) | cell-free assay, competition with immobilised ligand | – | – | 100
PIP5K1A (Homo sapiens, UniProt Q99755) | cell-free assay, competition with immobilised ligand | – | – | 98
LATS1 (Homo sapiens, UniProt O95835) | cell-free assay, competition with immobilised ligand | – | – | 100
CSNK2A1 (Homo sapiens, UniProt P68400) | cell-free assay, competition with immobilised ligand | – | – | 81
TEK (Homo sapiens, UniProt Q02763) | cell-free assay, competition with immobilised ligand | – | – | 100
EPHB6 (Homo sapiens, UniProt O15197) | cell-free assay, competition with immobilised ligand | – | – | 89
PNCK (Homo sapiens, UniProt Q6P2M8) | cell-free assay, competition with immobilised ligand | – | – | 88
ALK (Homo sapiens, UniProt Q9UM73) | cell-free assay, competition with immobilised ligand | – | – | 74
LRRK2 (Homo sapiens, UniProt Q5S007, G2019S) | cell-free assay, competition with immobilised ligand | – | – | 91
EPHB3 (Homo sapiens, UniProt P54753) | cell-free assay, competition with immobilised ligand | – | – | 100
ABL1 (Homo sapiens, UniProt P00519, F317I) | KINOMEscan | F317I mutant, phosphorylated | baseline: control | 76
RIPK2 (Homo sapiens, UniProt O43353) | cell-free assay, competition with immobilised ligand | – | – | 100
TYRO3 (Homo sapiens, UniProt Q06418) | cell-free assay, competition with immobilised ligand | – | – | 100
Tyrosine-protein kinase ABL1, non-phosphorylated (ABL1, Homo sapiens, UniProt P00519, F317I) | cell-free assay, competition with immobilised ligand | – | – | 90

Series 4
Target: Histone acetyltransferase KAT6A, winged helix 1, GST fusion (KAT6A, Homo sapiens, UniProt Q92794, residues 1-85)
Technique: protein binding microarray
Form: double-stranded DNA, one strand shown
Medium: in vitro
Concentration: not given
Notes: 8-mer, flanks averaged, mean of 2 arrays, mostly near background
Baseline: not given
Direction: higher = stronger binding
Target sequence (chain): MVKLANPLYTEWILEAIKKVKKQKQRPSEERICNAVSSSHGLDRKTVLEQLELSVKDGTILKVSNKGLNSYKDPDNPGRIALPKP
Oligonucleotide | E-score
AGTCACGA | -0.238
CAAAACCA | -0.0122
CTGCGATC | -0.0673
AGTTCGCC | 0.00066
AGGGACGC | 0.0341
GATGGAAC | -0.224
CATATTAC | -0.00115
AGGGTGAA | -0.273

Repeated from above (series 3):
target | test | setting | how to read | remaining binding [%]
EPHB3 (Homo sapiens, UniProt P54753) | cell-free assay, competition with immobilised ligand | – | – | 100
ABL1 (Homo sapiens, UniProt P00519, F317I) | KINOMEscan | F317I mutant, phosphorylated | baseline: control | 76
RIPK2 (Homo sapiens, UniProt O43353) | cell-free assay, competition with immobilised ligand | – | – | 100
